# Results from different studies.
# ± marks the error that the study gave.
Compound,tested on,test,test system,conditions,how to read,quantity,result
C=CCN1CC(=O)N2[C@@H](Cc3ccc(O)cc3F)C(=O)N(Cc3cccc(N4CC(N5CCN(CC)CC5)C4)n3)C[C@@H]2N1C(=O)NCc1ccccc1,,,advanced solid tumour patients,"oral, 45 mg twice daily, any grade, dose-escalation",,treatment-related decreased appetite,0%
Cc1c(-c2ccc(N3CCc4cccc(C(=O)Nc5nc6ccccc6s5)c4C3)nc2C(=O)O)cnn1CC12CC3(C)CC(C)(C1)CC(OCCNCC[C@H](O)CO)(C3)C2,,,"beagle dog, male, anaesthetised","intravenous infusion, 0.01 mg/kg/min, 5 min",baseline: baseline,mean arterial pressure change,-3 mmHg
NC1(C(=O)N[C@@H](CCO)c2ccc(Cl)cc2)CCN(c2nc[nH]c3nccc2-3)CC1,,,metastatic CRPC patients,"320 mg b.i.d., any grade, treatment-related, added: enzalutamide 160 mg daily",,incidence of Vomiting,0%
Cc1cc(Nc2ccc(S(F)(F)(F)(F)F)cc2)n2nc(C(C)(F)F)nc2n1,,,Plasmodium falciparum malaria patients,"oral, 400 mg",,adverse event Pyrexia,30.8%
c1ccc(-c2ccc(C(c3ccccc3)n3ccnc3)cc2)cc1 (centres unmarked),THP-1,pyroptotic LDH release,,"2 µM, 40 min, added: LPS then nigericin",,inhibition,29.9%
C[C@@H](Nc1cc(F)cc(F)c1)c1cc(C(=O)N(C)C)cc2c(=O)cc(N3CCOCC3)oc12,,refers to: Colitis,advanced solid tumour patients,"oral, dose not given, dose finding",,related serious adverse events,4.8%
CCn1cc(C(=O)N2CCOCC2)c(=O)c2cc(NC3Cc4ccccc4C3)cnc21,,,"human, fasted","oral suspension, 15 mg single dose, arithmetic mean",,AUC(0-last),504 ng·h/mL
CNC(=O)c1cc(Oc2ccc(NC(=O)Nc3cc(C(C)(C)C)nn3-c3ccc4ncccc4c3)c(F)c2)ccn1,,refers to: worst grade 2,human,"oral, dose not given, cycles 1 and 2, High Cmax subgroup",,patients with musculoskeletal disorder AE,11%
C=CC(=O)Nc1cc(Nc2nccc(-c3cn(C4CC4)c4ccccc34)n2)c(OC)cc1N(C)CCN(C)C,,,"BALB/c nude mice, LU0387 xenograft, serum","oral, 40 mg/kg",,creatinine,4.68 ± 0.436 µmol/L
N#Cc1ccc2c(c1)[C@H]1CCCN(C(=O)c3ccc4[nH]cnc4c3)[C@H]1C2,,,human males,"160 mg, end of trial",,DHEA-S level,7.9 µmol/L
COc1cc(Nc2ncc3c(n2)-c2ccc(Cl)cc2C(c2c(F)cccc2OC)=NC3)ccc1C(=O)O,,"refers to: Hyponatremia, grade 2","cancer patients, phase 1/2","oral, dose not given, added: pembrolizumab",,patients with adverse event,8%
CN(CC#N)C(=O)C[C@H](Nc1nc2ccccc2[nH]1)c1cccc(C(F)(F)F)c1,,,human,"intravenous infusion, 6 mg/kg, 1 mg/mL formulation",,apparent volume of distribution,97.4 ± 21.6 L
N#Cc1ccc2c(-c3ccncc3)c(-c3ccc(F)cc3)nn2c1,,,CD1 mouse female,"oral, 25 mg/kg",,MRT,11 h
CNC(=O)c1cccc(-c2ccc(O[C@H]3O[C@H](CO)[C@@H](O)[C@H](O)[C@@H]3O)c(C)c2)c1,,,"male Sprague-Dawley rat, plasma","intravenous, 3 mg/kg, group mean",,Vss,1.33 L/kg
CCCCCN1C[C@H](O)[C@@H](O)[C@H](O)[C@@H]1CO,,LC-MS/MS,"Hexb-/- mice, female, brain",30 mg/kg/day,,mean brain concentration,42 ng/g
Cl.[2H]C([2H])([2H])CC(=O)c1cnc(NC(=O)C2CC2)cc1Nc1cccc(-c2ncn(C([2H])([2H])[2H])n2)c1OC,,geometric mean,human,"oral, 40 mg twice daily, day 1, fed, liquid, multiple dose",,half-life,4.94 h
O=C1Nc2ccccc2C1=O,THP-1,pyroptotic LDH release,,"2 µM, 40 min, added: LPS then nigericin",,inhibition,2.15%
Cc1cc(C(=O)NC(C)(C)COc2cccc3c2C(N)=NS(=O)(=O)N3)cc(C)n1,,,"Sprague-Dawley rat, female, plasma","oral, 100 mg/kg",,dose-normalised AUC(0-last),0.66 ng·h/mL/mg/kg
O=C(Nc1nc2cccc(-c3ccc(CN4CCS(=O)(=O)CC4)cc3)n2n1)C1CC1,,,rheumatoid arthritis patients,"oral, 100 mg twice daily, 4 weeks, TEAE regardless of relatedness",,patients with Chills,0%
N[C@@H](C[18F])C(=O)O,,radio-TLC,human serum,2 h,,radiochemical purity,≥ 93%

# Some of these lines once more:
Compound,tested on,test,test system,conditions,how to read,quantity,result
Cc1c(-c2ccc(N3CCc4cccc(C(=O)Nc5nc6ccccc6s5)c4C3)nc2C(=O)O)cnn1CC12CC3(C)CC(C)(C1)CC(OCCNCC[C@H](O)CO)(C3)C2,,,"beagle dog, male, anaesthetised","intravenous infusion, 0.01 mg/kg/min, 5 min",baseline: baseline,mean arterial pressure change,-3 mmHg
NC1(C(=O)N[C@@H](CCO)c2ccc(Cl)cc2)CCN(c2nc[nH]c3nccc2-3)CC1,,,metastatic CRPC patients,"320 mg b.i.d., any grade, treatment-related, added: enzalutamide 160 mg daily",,incidence of Vomiting,0%
Cc1cc(Nc2ccc(S(F)(F)(F)(F)F)cc2)n2nc(C(C)(F)F)nc2n1,,,Plasmodium falciparum malaria patients,"oral, 400 mg",,adverse event Pyrexia,30.8%
